Assay results collected from several papers.
Each numbered part is a random draw from the data of one study; scales do not carry over between parts. Changes are numbered by the printed parent chain.

Study 1
Target: CCND1, cyclin fold, Cln2 fusion (human)
Technique: yeast growth competition, sequencing
Medium: yeast
Setting: strong parent motif
Reference: not given
Reading: higher = stronger binding
Quantity: normalised enrichment score
Starting sequence: CDKN1A docking peptide (human); SKACRRLFGPVDS; partner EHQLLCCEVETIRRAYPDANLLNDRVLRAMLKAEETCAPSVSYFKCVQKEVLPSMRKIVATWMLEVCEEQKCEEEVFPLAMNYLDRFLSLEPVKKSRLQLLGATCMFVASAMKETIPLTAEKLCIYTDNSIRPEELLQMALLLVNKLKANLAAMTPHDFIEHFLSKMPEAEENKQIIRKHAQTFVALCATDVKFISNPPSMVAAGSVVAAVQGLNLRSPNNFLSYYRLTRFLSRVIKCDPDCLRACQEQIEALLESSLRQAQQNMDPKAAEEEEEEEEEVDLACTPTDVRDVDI
A3L: 0.472
A3R: -0.337
R5L: 0.707
F8E: -0.568
R5N: 0.233
K2L: 1.29
A3T: 1.78
V11C: 3.42
F8G: 0.122
D12L: 1.31
R5F: 0.118
K2V: 1.7
C4I: 1.89
L7E: -0.139
C4E: 0.166

Study 2
Target: Interferon regulatory factor 7, full length, phosphomimetic (IRF7, Homo sapiens, UniProt Q92985, residues 1-503, S101K/S471D/S472D/S475D/S476D/S477D/S483D/S484D/S487D)
Chain of UniProt Q92985 (whole entry, unmodified, looked up): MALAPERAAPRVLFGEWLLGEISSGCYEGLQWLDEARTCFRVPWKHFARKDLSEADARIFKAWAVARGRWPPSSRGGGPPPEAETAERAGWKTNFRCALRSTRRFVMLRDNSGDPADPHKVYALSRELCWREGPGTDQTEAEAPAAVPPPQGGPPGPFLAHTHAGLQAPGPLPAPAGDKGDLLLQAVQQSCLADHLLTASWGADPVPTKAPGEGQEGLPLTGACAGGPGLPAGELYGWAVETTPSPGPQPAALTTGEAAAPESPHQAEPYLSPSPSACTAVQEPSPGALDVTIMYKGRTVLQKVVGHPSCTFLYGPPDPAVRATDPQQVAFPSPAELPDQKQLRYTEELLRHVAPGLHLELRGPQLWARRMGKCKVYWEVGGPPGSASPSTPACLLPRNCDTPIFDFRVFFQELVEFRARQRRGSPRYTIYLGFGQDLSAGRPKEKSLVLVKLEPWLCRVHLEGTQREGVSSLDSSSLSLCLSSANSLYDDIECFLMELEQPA
Technique: protein-binding microarray
Form: double-stranded DNA, one strand shown
Medium: in vitro
Tested at: 250 nM
Setting: 60-bp whole probe
Added: salmon DNA 0.4 mg/ml
Reference: random background probes
Reading: higher = stronger binding
Quantity: log fluorescence
All sequences stand within: GCCTAGCAC … GTCTTGATTCGCTTGACGCTGCTG
GAAGGTATCGACTATCGGGACGTGCTA: -0.195 z-score
GACGGTTTCGGGTTTCGGGTCGTGCTA: 13 z-score
TTAGGTTTCGACTATGGGTTAGTGCTA: 4.61 z-score
TCCCTTTCAGTTTTCCTCTGGTGCTAG: 1.5 z-score
TTTGGTATCCTTTTCCTTTAGTGCTAG: 1.78 z-score
CATAGAGATGCCTGTCCTCTGTGCTAG: -0.855 z-score
TTAGAACTGGGGTAGCGATTAGTGCTA: -0.926 z-score
GACGGTATCGGGACTGGGGAAGTGCTA: -0.177 z-score
TTAGGTCTTCTTTTCCTTTAGTGCTAG: 1.48 z-score
GACGGACTGGACACTGGGCACGTGCTA: -1.03 z-score
TTAGCTATCGGGTTTCGATTAGTGCTA: 5.36 z-score
TCAACTCTGTTTTCGCTTACTGTGCTA: 1.4 z-score
TTAGGTATCCTTTTCCTTAAGTGCTAG: 2.16 z-score
GACGGTATCCTTTTCCTAACGTGCTAG: 1.48 z-score
GACGGTCTGGGTATCGGGACGTGCTAG: -0.382 z-score
TTAGATTTCAGTTCCGATTAGTGCTAG: 1.85 z-score
TTAGGACAGGGTCTCGGTTAGTGCTAG: 1.16 z-score
GACGGTTTCGACTATCGAGACGTGCTA: 5.77 z-score
TTAGATTTCAGACTCGATTAGTGCTAG: 1.29 z-score
GACGGCTCCGGTTTCGGGACGTGCTAG: 2.95 z-score
TTAGATATCAGGATCGATTAGTGCTAG: 0.53 z-score
GACGGACAGGACACTGGGGACGTGCTA: -0.608 z-score
TTAGATATCGTGACTGGATTAGTGCTA: -0.0338 z-score
GACGGACTGGGTCTCGGGAGGTGCTAG: -0.29 z-score
TTAGGTTTCGACAATCGGTTAGTGCTA: 2.98 z-score

Study 3
Target: RNA binding protein fox-1 homolog 2, RRM domain, GST-SBP tag (RBFOX2, Homo sapiens, UniProt O43251-10, residues 100-194)
Technique: RNA Bind-n-Seq
Form: RNA
Medium: in vitro
Tested at: 365 nM
Setting: natural RNA segment, single round, ends assumed
Reference: no-protein control
Reading: higher = stronger binding
Quantity: RBNS enrichment (R)
Construct (chain): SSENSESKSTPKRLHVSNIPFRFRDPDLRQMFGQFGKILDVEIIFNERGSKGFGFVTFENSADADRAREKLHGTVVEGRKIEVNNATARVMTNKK
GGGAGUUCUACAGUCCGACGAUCAAAGUAUGUUCAUGAAUACCCCAAGCAUCAAGGUCUAAAUAAUUUUCAGAAGAUUAGAAUUGGGUAGAUAUACUGUUGGAUAUAGCCAUGGUAAAUUUAACUGAGGAAUUUGGAAUUCUCGGGUGCCAA: 0.62
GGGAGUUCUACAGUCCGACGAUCGGUUUCAGGUGUUAAUAUGUAAACAAGCAUCUCAUUUAACUUCACUGUGCUCAGCUUUGAAAAGAACAAAGAUUUAUACCUCUGUACAUGUGGAUAGAUAGAAGUGUCCUUGGAAUUCUCGGGUGCCAA: 0.365
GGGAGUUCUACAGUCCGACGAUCACAUGCUGCAUCUCCAGAGAUGUGCCAAGCCAAGGAGAAUGCUAGAAGCAGAGUAAAGCUUACCCCCCAAACUGUGGUCCAGCUGGACCCCUUCUUUAAUUCUUGCCUAAUGGAAUUCUCGGGUGCCAA: 0.423
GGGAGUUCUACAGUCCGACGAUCAAUCAGUGGCACUGUUAAUAUCCGCACAAGAGACAAUAAGGUCCACGGGGAACGCACCAUUUCUGAAACUAUCGAGCGGCUACAGCAGCUCAAAGAGUUCCGCAGCAAACUGGAAUUCUCGGGUGCCAA: 0.344
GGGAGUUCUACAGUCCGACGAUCAAAAUUUGAGGCAAAUUUUUUUAAAUGACAGAAAAAGAUAAUCAUCUCACUUGCUUGAAACAGGAGCCAGCAUGAUCUCUGGAAGCAUCAACUAUCCCUCGUCGUGAUUGUGGAAUUCUCGGGUGCCAA: 3.62
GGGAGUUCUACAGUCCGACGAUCACCGUAUUCCUCUCCCAGGUGUUUGUGGGGCUGGAAGGACCUGCUCCCACAGGGGCCAUGUCCUCUCUUAAUAGGUGGCACUACCCCAAACCCAUCUUUUGUUCUCCUAUUGGAAUUCUCGGGUGCCAA: 0.613
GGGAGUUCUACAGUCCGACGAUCAUGUGUACUCAGAAGAUCAAUAAGGUAAUAUUGGAAUUCAUGUGUUUUUUGCAAUUAAGGCAGGCAUUUGCCAAUGUCUUCUUUUAAGCAGUAGUUGGAAACAUCUCAAUUGGAAUUCUCGGGUGCCAA: 0.275
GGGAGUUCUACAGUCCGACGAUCCUCCUGCGGCACCCCGAGAGGGACCCCCAUGCUGGACACCUUCAGAGCGUGUGCAUAGGUGGUCUCUGACCUGAACAUCACAGUGCGGAGAAAGCCCGGCUGGAAACACCUGGAAUUCUCGGGUGCCAA: 0.233
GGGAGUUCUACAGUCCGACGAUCUUUACAUGUGACCUUCUUAUAGGUUAACUGAGUUUGUGGCCUGGGACACAUGUAAUGAAGGUCACAGUCCACAGGUGACAGAGAAAUCCAAACUGUUGAUUACAGGUGCAUGGAAUUCUCGGGUGCCAA: 4.12
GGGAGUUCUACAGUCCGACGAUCUGAUCGGCACCAGAAUCCACUGUCAAUAGGCCCGUGGGUGAUCAUUACAAUUGCAAAUCUUUACUUACAGGAGAGGAAACAGAAGAGAUAAAAACUUUUCCAUGCAAAUAUGGAAUUCUCGGGUGCCAA: 0.297
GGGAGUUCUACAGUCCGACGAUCGCAGGAAGGUAUAAACCGGUUAUGCACAUUGGAGCCCUUUGCUUUCACCUUACAUUCUGGAUGCAUUCAGAUCUCGGACGUCCUUAAGUGAAAUGAAUAUACAUGUCUAUUGGAAUUCUCGGGUGCCAA: 0.64
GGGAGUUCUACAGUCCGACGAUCUAAAACAAUCUAAAACAAUUCCCUUCUUUUUCAUCCCAGACCAAUGGCAUUAUUAGGUCUUAAAGUAGUUACUCCCUUCUCGUGUUUGCUUAAAAUAUGUGAAGUUUUCCUGGAAUUCUCGGGUGCCAA: 0.964

Study 4
Target: Sal-like protein 4, full length isoform B (SALL4, Homo sapiens, UniProt Q9UJQ4-2, residues 1-616)
Technique: universal PBM
Form: double-stranded DNA, one strand shown
Medium: in vitro
Tested at: not given
Setting: 8-mer, flanks averaged, mean of replicates
Reading: higher = stronger binding
Quantity: E-score
Target sequence (chain): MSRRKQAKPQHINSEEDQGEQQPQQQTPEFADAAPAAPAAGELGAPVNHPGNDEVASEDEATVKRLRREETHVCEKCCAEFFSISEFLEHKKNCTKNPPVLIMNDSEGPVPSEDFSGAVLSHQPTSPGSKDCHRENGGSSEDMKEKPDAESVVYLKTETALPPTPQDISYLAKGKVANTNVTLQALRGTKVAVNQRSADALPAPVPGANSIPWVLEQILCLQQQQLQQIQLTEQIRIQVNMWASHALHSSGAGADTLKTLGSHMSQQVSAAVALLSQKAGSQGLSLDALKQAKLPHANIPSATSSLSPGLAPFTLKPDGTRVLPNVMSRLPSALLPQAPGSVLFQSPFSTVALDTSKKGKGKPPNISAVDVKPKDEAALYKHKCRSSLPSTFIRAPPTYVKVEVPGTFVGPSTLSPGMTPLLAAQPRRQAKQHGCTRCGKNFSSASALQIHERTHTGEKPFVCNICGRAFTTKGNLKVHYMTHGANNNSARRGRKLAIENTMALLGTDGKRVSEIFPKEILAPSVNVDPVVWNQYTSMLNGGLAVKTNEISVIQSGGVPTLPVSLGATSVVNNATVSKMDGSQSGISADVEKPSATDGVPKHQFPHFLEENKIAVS
ACTCCCTA: 0.095
TGACGACA: 0.0235
CCTGCCCG: -0.194
TAATAGGA: 0.313
ATATGACC: 0.23
TCCACTAA: -0.0742
TCATTCAA: 0.27
GCGACGAC: -0.339
CTCTAAAC: -0.0343
CAAAGACC: 0.0116
GCATCTAA: 0.118
CCTATGCG: -0.0646
CAGGAAAG: -0.099
CAATATTA: 0.445
ACTAGCAC: -0.101
TAAACTAA: 0.325
AAAACGCA: -0.0538
ATAGTTTA: 0.287
CAGTCATG: -0.153
GACGAAGC: -0.137
TTGGCCAA: -0.187
GACAGTGA: -0.122
CGTCCGCC: -0.307
CATGAAGA: 0.109
GTGCTCGA: -0.163

A few entries again (study 3):
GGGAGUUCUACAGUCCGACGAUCAAUCAGUGGCACUGUUAAUAUCCGCACAAGAGACAAUAAGGUCCACGGGGAACGCACCAUUUCUGAAACUAUCGAGCGGCUACAGCAGCUCAAAGAGUUCCGCAGCAAACUGGAAUUCUCGGGUGCCAA: 0.344
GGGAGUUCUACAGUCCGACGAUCAAAAUUUGAGGCAAAUUUUUUUAAAUGACAGAAAAAGAUAAUCAUCUCACUUGCUUGAAACAGGAGCCAGCAUGAUCUCUGGAAGCAUCAACUAUCCCUCGUCGUGAUUGUGGAAUUCUCGGGUGCCAA: 3.62
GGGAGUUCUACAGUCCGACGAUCACCGUAUUCCUCUCCCAGGUGUUUGUGGGGCUGGAAGGACCUGCUCCCACAGGGGCCAUGUCCUCUCUUAAUAGGUGGCACUACCCCAAACCCAUCUUUUGUUCUCCUAUUGGAAUUCUCGGGUGCCAA: 0.613
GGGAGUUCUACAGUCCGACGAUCAUGUGUACUCAGAAGAUCAAUAAGGUAAUAUUGGAAUUCAUGUGUUUUUUGCAAUUAAGGCAGGCAUUUGCCAAUGUCUUCUUUUAAGCAGUAGUUGGAAACAUCUCAAUUGGAAUUCUCGGGUGCCAA: 0.275
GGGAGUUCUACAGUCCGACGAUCCUCCUGCGGCACCCCGAGAGGGACCCCCAUGCUGGACACCUUCAGAGCGUGUGCAUAGGUGGUCUCUGACCUGAACAUCACAGUGCGGAGAAAGCCCGGCUGGAAACACCUGGAAUUCUCGGGUGCCAA: 0.233
